Assay results collected from several papers.
Protocols differ between the studies behind these lines. ± marks the error that the study gave.

Substance	tested on	assay	system	conditions	how to read	measurement	value
C[C@H]1O[C@@H](O[C@H]2CC[C@@]3(C)[C@@H](CC[C@]4(C)[C@@H]3C=C[C@]35OC[C@@]6(CCC(C)(C)C[C@H]63)[C@H](O)C[C@]54C)[C@]2(C)CO)[C@H](O)[C@@H](O[C@@H]2O[C@H](CO)[C@@H](O)[C@H](O)[C@H]2O)[C@H]1O	Caco-2 monolayer	Caco-2 bidirectional transport		10 µM, 3 h, 37 °C		recovery apical to basolateral	64.3%
Cc1ccc(NC(=O)CSc2nnc(Cn3cnc4c3c(=O)n(C)c(=O)n4C)n2-c2ccccc2)c(C)c1	bovine erythrocytes			1 mg/mL, 30 min, 37 °C		haemolysis	2.7%
COCC#Cc1c(-c2ccc(C)cc2)oc2nc(=O)n([C@H]3C[C@H](OC(C)=O)[C@@H](COC(C)=O)O3)cc12	HEL human embryonic lung	cell morphology				minimum cytotoxic concentration	> 100 µM
Cn1c(=O)c2c(ncn2Cc2nnc(SCC(=O)Nc3ccc(Cl)c(Cl)c3)n2-c2ccccc2)n(C)c1=O	bovine erythrocytes			1 mg/mL, 30 min, 37 °C		haemolysis	5.5%
CCCCCc1ccc(-c2oc3nc(=O)n([C@H]4C[C@H](OC(C)=O)[C@@H](COC(C)=O)O4)cc3c2C#CCO)cc1	HEL human embryonic lung	cell morphology				minimum cytotoxic concentration	100 µM
Cc1ccc(C)c(N2CCN(c3c(C)c(C)nc4ncnn34)CC2)c1	BRE-Luc reporter cells	luciferase counter screen				cytotoxicity onset concentration	> 17.9 µM
CCCCCc1ccc(-c2oc3nc(=O)n([C@H]4C[C@H](OC(C)=O)[C@@H](COC(C)=O)O4)cc3c2C#CCCO)cc1	HEL human embryonic lung	cell morphology				minimum cytotoxic concentration	100 µM
Nc1ccc2[nH]c(-c3ccccc3)cc2c1	HEK293 NF-κB luciferase reporter	reporter gene, measured: NF-κB		50 µM, 6 h, added: TNFα		inhibition	78.4 ± 12.1%
CCCN(Cc1ccccc1OC)C(=O)c1cccc(Br)c1	HEK293	cell viability, MTT		72 h		IC50	9.2 ± 4.9 µM
COc1ccc(N2C(=O)N(c3c(C)cccc3Cl)Cc3cnc(Nc4ccc(N5CCN(C)CC5)cc4)nc32)nc1	mouse BMDCs			added: zymosan A		CC50	0.19 ± 0.06 µM
Cc1ccc(NC(=O)c2ccc(CN3CCN(C)CC3)cc2)cc1Nc1nccc(-c2cncc(-c3oncc3C)c2)n1			mild-to-moderate Parkinson's disease patients	oral, 50 mg once daily, pre-dose baseline, on anti-Parkinson medication	direction not given	PGI-S score	2.2 ± 0.8
C=C[C@@H]1C[C@]1(NC(=O)[C@@H]1C[C@@H](Oc2ncc(OC)c3ccc(Cl)cc23)CN1C(=O)[C@@H](NC(=O)OC(C)(C)C)C(C)(C)C)C(=O)NS(=O)(=O)C1CC1	Caco-2 monolayer			added: efflux inhibitor cocktail	B-A over A-B	efflux ratio	4.1
CCCCCc1ccc(C#Cc2c(-c3ccc(C)cc3)oc3nc(=O)n([C@H]4C[C@H](OC(C)=O)[C@@H](COC(C)=O)O4)cc23)cc1	HEL human embryonic lung	cell morphology				minimum cytotoxic concentration	20 µM
Cn1c(=O)c2c(ncn2Cc2nnc(SCC(=O)Nc3ccccc3Cl)n2-c2ccccc2)n(C)c1=O	bovine erythrocytes			1 mg/mL, 30 min, 37 °C		haemolysis	8.6%
COC(=O)N[C@H](C(=O)N1CCC[C@H]1c1nc(-c2ccc(-c3ccc(-c4c[nH]c([C@@H]5CCCN5C(=O)[C@@H](NC(=O)OC)C(C)C)n4)cc3)cc2)c[nH]1)C(C)C	Caco-2 monolayer			added: efflux inhibitor cocktail	B-A over A-B	efflux ratio	3.7
Cc1ccc(NC(=O)CSc2nnc(Cn3cnc4c3c(=O)n(C)c(=O)n4C)n2-c2ccccc2)cc1C	bovine erythrocytes			1 mg/mL, 30 min, 37 °C		haemolysis	5.9%
CN(C)c1cc2[nH]c(C3CCCCC3)nc2cc1NC(=O)c1ccc(OC(F)F)cc1	Vero	cytotoxicity, Alamar Blue		3 days, 37 °C		IC50	> 100 µg/mL
CC1=C(CC(=O)Oc2ccc(-c3cc(=S)ss3)cc2)c2cc(F)ccc2/C1=C\c1ccc([S+](C)[O-])cc1 (stereo not shown)	HepG2 and LS180	EROD activity, inhibitor		24 h, averaged over cell lines, added: benzo[a]pyrene 1 µM		IC50	100 µM
CN(C)c1cc2[nH]c(C3CCCCC3)nc2cc1NC(=O)c1ccc(C(C)(C)C)cc1	Vero	cytotoxicity, Alamar Blue		3 days, 37 °C		IC50	> 100 µg/mL
CCCc1cc(=O)oc2cc(OCc3cc(=O)c(O)co3)ccc12	HEK293	CCK-8		4 to 108 µM, 24 h		viability	> 80%
CC(C)(C)c1cc(C(C)(C)C)c(NC(=O)c2c[nH]c3ccccc3c2=O)cc1O	Calu-3			3-10 µg/mL, 4 h, 37 °C, apical to basal transport		accumulation in monolayer	46 to 83%
CC(C)[C@H](NC(=O)[C@@H]1CCCN1C(=O)[C@H](CCCNC(=N)N)NC(=O)[C@H](CS)NC(=O)[C@H](Cc1c[nH]c2ccccc12)NC(=O)[C@H](CCCNC(=N)N)NC(=O)[C@@H](Cc1ccccc1)NC(=O)[C@H](Cc1c[nH]cn1)NC(=O)[C@H](CCC(=O)O)NC(=O)[C@H](CS)NC(=O)[C@H](CS)NC(=O)[C@H](CCCNC(=N)N)NC(=O)[C@@H]1CC(=O)N[C@@H](CCCNC(=N)N)C(=O)N[C@@H](C)C(=O)N[C@@H](CC(=O)O)C(=O)N[C@H](Cc2ccc(O)cc2)C(=O)N1)C(N)=O [technetium-99m labelled]			C57 mouse, urinary bladder	intravenous, 0.037 MBq, 0.5 h		tissue uptake	46.3 ± 2.59 %ID
C#C[C@]1(COP(=O)(O)OP(=O)(O)OP(=O)(O)O)O[C@@H](n2cnc3c(N)nc(F)nc32)C[C@@H]1O	human PBMC tumour model		host not given, plasma	oral, 100 mg, single dose, fasted		half-life	171 h

Substance	tested on	assay	system	conditions	how to read	measurement	value
CCCC(C)OC(=O)Nc1cc2nc(C3CCCCC3)[nH]c2cc1N(CC)CC (stereo not shown)	Vero	cytotoxicity, Alamar Blue		3 days, 37 °C		IC50	> 100 µg/mL
CCCCCCCC/C=C\CCCCCCCCOC(=O)C1=C(C)NC(=O)NC1c1cccc(O)c1 (stereo not shown)	C2C12	MTT		10 µM, 48 h		viability	77%
Cn1c(=O)c2c(ncn2Cc2nnc(SCC(=O)Nc3ccc(Cl)cc3Cl)n2-c2ccccc2)n(C)c1=O	bovine erythrocytes			1 mg/mL, 30 min, 37 °C		haemolysis	15%
CC(C)[C@H](NC(=O)[C@@H]1CCCN1C(=O)[C@H](CCCNC(=N)N)NC(=O)[C@H](CS)NC(=O)[C@H](Cc1c[nH]c2ccccc12)NC(=O)[C@H](CCCNC(=N)N)NC(=O)[C@@H](Cc1ccccc1)NC(=O)[C@H](Cc1c[nH]cn1)NC(=O)[C@H](CCC(=O)O)NC(=O)[C@H](CS)NC(=O)[C@H](CS)NC(=O)[C@H](CCCCN)NC(=O)[C@@H]1CC(=O)N[C@@H](CCCNC(=N)N)C(=O)N[C@@H](C)C(=O)N[C@@H](CC(=O)O)C(=O)N[C@H](Cc2ccc(O)cc2)C(=O)N1)C(N)=O [technetium-99m labelled]			C57 mice, lung	intravenous, 0.037 MBq, 2 h		tissue uptake	0.87 ± 0.21 %ID/g
COc1ccc2c(O[C@@H]3C[C@H]4C(=O)N[C@]5(C(=O)NS(=O)(=O)C6CC6)C[C@H]5/C=C\CCCCN(C)C(=O)[C@@H]4C3)cc(-c3nc(C(C)C)cs3)nc2c1C	Caco-2 monolayer			added: efflux inhibitor cocktail		Papp A-B	0.5 ± 0.21 ×10⁻⁶ cm/s
CCN(CC)c1cc2[nH]c(C3CCCCC3)nc2cc1NC(=O)c1ccc(OC(F)F)cc1	Vero	cytotoxicity, Alamar Blue		3 days, 37 °C		IC50	> 100 µg/mL
COc1ccc(N(C(=O)Nc2c(C)cccc2C)c2cc(Nc3ccc(N4CCN(C)CC4)cc3)ncn2)c(OC)c1	mouse BMDCs			added: zymosan A		CC50	5 ± 2.5 µM
Cc1cc(OCc2nnc(SC3CCCC3)n2-c2cccnc2)ccc1-c1ccc(S(C)(=O)=O)cc1	Huh-7 cells, uninfected			0.25 µM, 5 days		viability	54 ± 2%
CN(C)c1cc2[nH]c(C3CCCCC3)nc2cc1NC(=O)c1ccc(F)cc1F	Vero	cytotoxicity, Alamar Blue		3 days, 37 °C		IC50	> 100 µg/mL
COc1cccc2c1C(=O)c1c(O)c3c(c(O)c1C2=O)C[C@@](O)(C(=O)CO)C[C@@H]3O[C@H]1C[C@H](NC(=O)[C@@H]2CCCN2C(=O)CN)[C@H](O)[C@H](C)O1			mouse, E0771 tumour-bearing, kidney	intravenous, 92 µmol/kg PhAc-ALGP-Dox		terminal half-life	12.7 h
CCN(Cc1ccccc1OC)C(=O)c1cc(C)c(C)s1	HEK293	cell viability, MTT		72 h		IC50	20 ± 3.8 µM
CC(=O)OC[C@H]1O[C@@H](n2cc3c(C#CCCO)c(-c4ccc(C)cc4)oc3nc2=O)C[C@@H]1OC(C)=O	HEL human embryonic lung	cell morphology				minimum cytotoxic concentration	> 100 µM
Cc1ccc(-c2ncn(-c3ccc(Nc4nccc(-c5cccc(N6CCOCC6)c5)n4)cc3)n2)cn1	NIH3T3 in PANC/NIH microtissues	fibroblast toxicity		chronic toxicity, unit not given	baseline: AC50 ATP over AC50 NanoLUC, day 7	therapeutic window	5.64
CC(=O)OC[C@H]1O[C@@H](n2cc3c(C#CCO)c(-c4ccc(C)cc4)oc3nc2=O)C[C@@H]1OC(C)=O	HEL human embryonic lung	cell morphology				minimum cytotoxic concentration	> 100 µM
Telavancin	J774 mouse macrophages			24 h, 37 °C, 10% fetal calf serum, concentration range		uptake clearance	10 ± 0.4 µL/mg protein/h
CN(C)c1cc2[nH]c(C3CCCCC3)nc2cc1NC(=O)c1ccc(OC(F)(F)F)cc1	Vero	cytotoxicity, Alamar Blue		3 days, 37 °C		IC50	> 100 µg/mL
C#CCn1c(-c2ccccc2)cc2ccccc21	HEK293	cell growth or viability		50 µM		viability	105%
CCN(CC)c1cc2[nH]c(C3CCCCC3)nc2cc1NC(=O)c1ccc(Br)cc1	Vero	cytotoxicity, Alamar Blue		3 days, 37 °C		IC50	> 100 µg/mL
CCCCCCCCCC[N+](C)(C)C	horse PBMCs	resazurin viability				CC50	1260 µM
CCCCCCCC/C=C\CCCCCCCCOC(=O)C1=C(C)NC(=S)NC1c1ccc(OC)cc1 (stereo not shown)	C2C12	cell growth or viability, MTT		10 µM, 48 h		viability	~70%
COc1ccc2c(C[Se][C@@H]3O[C@H](CO)[C@H](O)[C@H](O)[C@H]3O)cc(=O)oc2c1	J774	cell growth or viability, WST-1		24 h		CC50	> 100 µM
CCCCCCCC/C=C\CCCCCCCCOC(=O)C1=C(C)NC(=S)NC1c1ccc(C)cc1 (stereo not shown)	C2C12	cell growth or viability, MTT		10 µM, 48 h		viability	~70%
O=C(Nc1cc2nc(C3CCCCC3)[nH]c2cc1N1CCCC1)c1ccc(Br)cc1	Vero	cytotoxicity, Alamar Blue		3 days, 37 °C		IC50	> 100 µg/mL

For quick reference, copied from above:
Substance	tested on	assay	system	conditions	how to read	measurement	value
COc1ccc(N2C(=O)N(c3c(C)cccc3Cl)Cc3cnc(Nc4ccc(N5CCN(C)CC5)cc4)nc32)nc1	mouse BMDCs			added: zymosan A		CC50	0.19 ± 0.06 µM
O=C(Nc1cc2nc(C3CCCCC3)[nH]c2cc1N1CCCC1)c1ccc(Br)cc1	Vero	cytotoxicity, Alamar Blue		3 days, 37 °C		IC50	> 100 µg/mL
COc1ccc2c(C[Se][C@@H]3O[C@H](CO)[C@H](O)[C@H](O)[C@H]3O)cc(=O)oc2c1	J774	cell growth or viability, WST-1		24 h		CC50	> 100 µM
CCCC(C)OC(=O)Nc1cc2nc(C3CCCCC3)[nH]c2cc1N(CC)CC (stereo not shown)	Vero	cytotoxicity, Alamar Blue		3 days, 37 °C		IC50	> 100 µg/mL
CCCCCCCC/C=C\CCCCCCCCOC(=O)C1=C(C)NC(=S)NC1c1ccc(C)cc1 (stereo not shown)	C2C12	cell growth or viability, MTT		10 µM, 48 h		viability	~70%
COc1ccc(N(C(=O)Nc2c(C)cccc2C)c2cc(Nc3ccc(N4CCN(C)CC4)cc3)ncn2)c(OC)c1	mouse BMDCs			added: zymosan A		CC50	5 ± 2.5 µM
Cc1ccc(C)c(N2CCN(c3c(C)c(C)nc4ncnn34)CC2)c1	BRE-Luc reporter cells	luciferase counter screen				cytotoxicity onset concentration	> 17.9 µM
CN(C)c1cc2[nH]c(C3CCCCC3)nc2cc1NC(=O)c1ccc(F)cc1F	Vero	cytotoxicity, Alamar Blue		3 days, 37 °C		IC50	> 100 µg/mL
